Results from different studies.
Each line is one published result; not all experiments were run side by side. Numbers after ± are the reported error.

Structure (SMILES) | assay | system | conditions | scale | quantity | value
O=C1NC2(CC2)COc2ncc(F)cc2[C@H]2COCCN2c2ccn3ncc1c3n2 | – | Sprague-Dawley rat, male, kidneys | oral, 20 mg/kg/day, 4 weeks, end of treatment | – | organ-to-brain weight ratio | 151 ± 24.1%
CC(C)C(=O)OC[C@H]1O[C@@](C#N)(n2ccc(N)nc2=O)[C@H](O)[C@@H]1O | plasma stability | human plasma | – | – | half-life | > 2 h
N#[11C]c1ccc(-c2csc(NN=C3CCCC3)n2)cc1 | – | C57BL/6 mouse, male | intravenous, 3 MBq, 15 min | – | uptake in adrenal gland | 6.57 ± 1.35 %ID/g
CCCC[C@@H]1NC(=O)[C@H](Cc2ccc(O)cc2)NC(=O)[C@@H]2CCCN2C(=O)[C@H](CC(=O)O)NC(=O)[C@H](C)NC(=O)[C@H](Cc2ccccc2)NC(=O)[C@@H]2CSCCC(=O)N3CN(CN(C3)C(=O)CCSC[C@@H](C(=O)N[C@@H](C)C(N)=O)NC1=O)C(=O)CCSC[C@H](NC(C)=O)C(=O)N[C@@H](CC(C)(C)C)C(=O)N1CCC[C@H]1C(=O)N[C@@H](CCC(=O)O)C(=O)N[C@H](CCCCNC(=O)CCc1cn(CCOCCOCCOCCN(CCOCCOCCOCCC(=O)N[C@H]3CSCCC(=O)N4CN5CN(C4)C(=O)CCSC[C@H](NC(=O)[C@@H](CC(=O)O)NC(=O)[C@H](Cc4cccc6ccccc46)NC(=O)[C@@H]4CCCN4C3=O)C(=O)N[C@@H](CCSC)C(=O)N[C@@H](CCCCNC(=N)N)C(=O)N[C@@H](CC(=O)O)C(=O)N[C@@H](Cc3c[nH]c4ccccc34)C(=O)N[C@@H](CO)C(=O)N[C@@H]([C@@H](C)O)C(=O)N3CCC[C@H]3C(=O)N3C[C@H](O)C[C@H]3C(=O)N[C@@H](Cc3c[nH]c4ccccc34)C(=O)N[C@H](C(N)=O)CSCCC5=O)CCOCCOCCOCCn3cc(CCC(=O)NCCCC[C@H]4NC(=O)[C@H](CCC(=O)O)NC(=O)[C@@H]5CCCN5C(=O)[C@H](CC(C)(C)C)NC(=O)[C@@H](NC(C)=O)CSCCC(=O)N5CN6CN(C5)C(=O)CCSC[C@H](NC(=O)[C@H](Cc5ccc(O)cc5)NC(=O)[C@@H]5CCCN5C4=O)C(=O)N[C@@H](Cc4ccccc4)C(=O)N[C@@H](C)C(=O)N[C@@H](CC(=O)O)C(=O)N4CCC[C@H]4C(=O)N[C@@H](Cc4ccc(O)cc4)C(=O)N[C@@H](CCCC)C(=O)N[C@H](C(=O)N[C@@H](C)C(N)=O)CSCCC6=O)nn3)nn1)C(=O)N1CCC[C@H]1C(=O)N[C@@H](Cc1ccc(O)cc1)C(=O)N2 | – | Sprague-Dawley rat | – | – | unbound clearance | 41 mL/min/kg
CN1Cc2cc(Cl)ccc2-n2c(nnc2C2CCN(c3cccc(F)n3)CC2)C1 | – | male Sprague-Dawley rat, plasma | intravenous, 0.03 mg/kg, 30 min | – | concentration | 4.37 ng/mL
CC(C)[C@@H]1NC(=O)CNC(=O)[C@H](CC(N)=O)NC(=O)[C@H](CCCNC(=N)N)NC(=O)[C@H](Cc2ccc(O)cc2)NC(=O)[C@H](C(C)C)NC(=O)[C@@H](NC(=O)[C@@H](NC(=O)[C@H](CC(N)=O)NC(=O)[C@H](Cc2c[nH]c3ccccc23)NC(=O)[C@H](C)NC(=O)[C@H](Cc2ccccc2)NC(=O)CNC(=O)[C@H](CCCCN)NC(=O)[C@H](Cc2ccccc2)NC(=O)[C@H](Cc2ccccc2)NC(=O)[C@H](CCCCN)NC(=O)OCC2c3ccccc3-c3ccccc32)C(C)C)CSSC[C@@H](C(=O)N[C@@H](Cc2c[nH]cn2)C(=O)N[C@@H](CCCNC(=N)N)C(=O)N[C@@H](CCCNC(=N)N)C(=O)N[C@@H](C)C(=O)N[C@@H](CC(N)=O)C(N)=O)NC(=O)[C@H](C(C)C)NC(=O)[C@H](CCCNC(=N)N)NC1=O | – | ICR mouse | ip, 10 mg/kg | direction not given | stimulus response score | 0
CCN(CC)CCOc1ccc(-c2nnn(Cc3ccc(OC)cc3)c2N)cc1 | – | beagle dog | oral, at least 40 mg/kg | – | heart rate increase | ≤ 21%
Cc1ccccc1-c1ccc(-c2nc(-c3ccc(CN(C)CCCC(=O)O)c([18F])c3)no2)cc1C(F)(F)F | – | rat, liver | 1 h | – | tracer uptake | 1.68 %ID/g
C(#Cc1cncc(OC[C@@H]2CCN2)c1)c1ccccc1 | – | male Sprague-Dawley rat, plasma | oral, 75 mg/kg, 1 h | – | concentration | 390 ng/mL
CCCCC[C@@H]1OC(=O)[C@@H](C)N(C)C(=O)[C@H](CCCCC)N(C)C(=O)[C@@H](C)N(C)C(=O)[C@H](CCCCC)N(C)C(=O)[C@@H](C)N(C)C(=O)[C@H](CCCCC)N(C)C(=O)[C@@H](C)N(C)C1=O | PAMPA, HPLC-UV | – | 500 µM, pH 7.4 | – | log Papp | -5.42 ± 0.04
N=C(N)NCCC[C@@H](NC(=O)[C@H](N)Cc1c[nH]c2ccccc12)C(=O)N[C@H](CCCCN)C(=O)N[C@H](Cc1c[nH]c2ccccc12)C(=O)N[C@H](CCCNC(=N)N)C(=O)N[C@H](CCCCN)C(=O)N[C@H](Cc1c[nH]c2ccccc12)C(=O)N[C@H](CCCNC(=N)N)C(=O)N[C@H](CCCCN)C(=O)N[C@H](Cc1c[nH]c2ccccc12)C(=O)N[C@H](CCCNC(=N)N)C(=O)N[C@H](CCCCN)C(N)=O | – | mouse | intraperitoneal, 40 mg/kg single dose, day 1 | – | survival | 75%
CC[C@H](C)[C@H](NC(=O)[C@H](CCCCN)NC(=O)CNC(=O)[C@H](CC(C)C)NC(=O)[C@H](Cc1ccccc1)NC(=O)[C@H](CCCCN)NC(=O)[C@H](CO)NC(=O)[C@H](Cc1ccccc1)NC(=O)[C@H](Cc1c[nH]c2ccccc12)NC(=O)[C@H](CCC(N)=O)NC(=O)[C@@H](NC(=O)[C@H](Cc1ccccc1)NC(=O)CCCCCNC(=O)CN1CCN(CC(=O)O)CCN(CC(=O)O)CCN(CC(=O)O)CC1)C(C)C)C(=O)N[C@@H](CCC(=O)O)C(=O)N1CCC[C@H]1C(=O)N[C@@H](CC(=O)O)C(=O)N[C@H](C(=O)N[C@@H](CO)C(=O)N[C@@H](CCC(N)=O)C(=O)N[C@H](C(=O)N[C@@H](CCC(N)=O)C(=O)N[C@@H](CC(=O)O)C(=O)N1CCC[C@H]1C(=O)N[C@@H](CC(N)=O)C(=O)N[C@@H](CC(=O)O)C(=O)N[C@@H](CCC(N)=O)C(=O)N[C@@H](Cc1ccc(O)cc1)C(=O)N[C@@H](CCC(=O)O)C(=O)N1CCC[C@H]1C(=O)N[C@@H](Cc1ccccc1)C(=O)O)C(C)C)C(C)C [copper-64 labelled] | dynamic PET | mouse both sexes, CT26 tumour, checkpoint inhibitor-treated, tumour | intravenous, 100 µCi/mouse, 10 s | – | SUVmean | 0.11 SUV
N=C(N)NCCC[C@H](NC(=O)[C@H](CCCNC(=N)N)NC(=O)[C@H](CCCNC(=N)N)NC(=O)[C@H](CCC(N)=O)NC(=O)[C@H](CCCNC(=N)N)NC(=O)[C@H](CCCNC(=N)N)NC(=O)[C@H](CCCCN)NC(=O)[C@H](CCCCN)NC(=O)[C@H](CCCNC(=N)N)NC(=O)CNC(=O)[C@H](Cc1ccc(O)cc1)NC(=O)[C@H](Cc1ccccc1)NC(=O)[C@H](Cc1ccccc1)NC(=O)[C@H](Cc1ccccc1)NC(=O)OCC1c2ccccc2-c2ccccc21)C(=O)O | – | C57BL/6 mice | intraperitoneal, 10 mg/kg, 2 h | direction not given | health score | 5

Some of these lines once more:
Structure (SMILES) | assay | system | conditions | scale | quantity | value
CC(C)[C@@H]1NC(=O)CNC(=O)[C@H](CC(N)=O)NC(=O)[C@H](CCCNC(=N)N)NC(=O)[C@H](Cc2ccc(O)cc2)NC(=O)[C@H](C(C)C)NC(=O)[C@@H](NC(=O)[C@@H](NC(=O)[C@H](CC(N)=O)NC(=O)[C@H](Cc2c[nH]c3ccccc23)NC(=O)[C@H](C)NC(=O)[C@H](Cc2ccccc2)NC(=O)CNC(=O)[C@H](CCCCN)NC(=O)[C@H](Cc2ccccc2)NC(=O)[C@H](Cc2ccccc2)NC(=O)[C@H](CCCCN)NC(=O)OCC2c3ccccc3-c3ccccc32)C(C)C)CSSC[C@@H](C(=O)N[C@@H](Cc2c[nH]cn2)C(=O)N[C@@H](CCCNC(=N)N)C(=O)N[C@@H](CCCNC(=N)N)C(=O)N[C@@H](C)C(=O)N[C@@H](CC(N)=O)C(N)=O)NC(=O)[C@H](C(C)C)NC(=O)[C@H](CCCNC(=N)N)NC1=O | – | ICR mouse | ip, 10 mg/kg | direction not given | stimulus response score | 0
